Assay results pooled from the literature.
Numbered parts are unrelated; each lists some results of a single study. Substitutions count along the parent as printed.

Set 1 — technique: DHFR PCA, deep sequencing; matrix: yeast; with: (+)-ABA 58 µM; relative to: wild-type fitted maximum; reading: higher = stronger binding; quantity: relative binding score
Target: ABI1, truncated, D143A, DHFR fusion (Arabidopsis thaliana)
Setting: methotrexate growth selection, single substitutions
Starting sequence: PYL1, truncated, DHFR fusion (Arabidopsis thaliana); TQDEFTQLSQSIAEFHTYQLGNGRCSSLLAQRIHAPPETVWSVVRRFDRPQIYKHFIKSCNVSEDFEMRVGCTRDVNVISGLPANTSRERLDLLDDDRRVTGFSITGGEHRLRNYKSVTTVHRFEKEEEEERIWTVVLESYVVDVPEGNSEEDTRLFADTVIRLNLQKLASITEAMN
C25N: -34.1%
V40C: 31.6%
T39H: 80.1%
R132D: 103%
G71W: 4.79%
W41I: 14.2%
Q31G: 12.4%
G107V: 10.5%
F157L: 73.5%
E64G: 84.3%
W41N: -3.6%
E152T: 80%
A13R: 82.1%
G23N: 88.7%
I52E: 79.4%
V62K: 25.1%
E128W: 76.9%
A84H: 28.6%

Set 2 — technique: RNA Bind-n-Seq; form: RNA; matrix: in vitro; tested at: 200 nM; setting: whole 134-nt RNA, ends assumed; with: 150 mM LiCl; relative to: input library; reading: higher = stronger binding; quantity: log2 enrichment; library: 7-deaza-guanosine replaces G
Target: Ras GTPase-activating protein-binding protein 1, full length (G3BP1, Homo sapiens, UniProt Q13283)
UniProt Q13283, sequence (whole entry, looked up): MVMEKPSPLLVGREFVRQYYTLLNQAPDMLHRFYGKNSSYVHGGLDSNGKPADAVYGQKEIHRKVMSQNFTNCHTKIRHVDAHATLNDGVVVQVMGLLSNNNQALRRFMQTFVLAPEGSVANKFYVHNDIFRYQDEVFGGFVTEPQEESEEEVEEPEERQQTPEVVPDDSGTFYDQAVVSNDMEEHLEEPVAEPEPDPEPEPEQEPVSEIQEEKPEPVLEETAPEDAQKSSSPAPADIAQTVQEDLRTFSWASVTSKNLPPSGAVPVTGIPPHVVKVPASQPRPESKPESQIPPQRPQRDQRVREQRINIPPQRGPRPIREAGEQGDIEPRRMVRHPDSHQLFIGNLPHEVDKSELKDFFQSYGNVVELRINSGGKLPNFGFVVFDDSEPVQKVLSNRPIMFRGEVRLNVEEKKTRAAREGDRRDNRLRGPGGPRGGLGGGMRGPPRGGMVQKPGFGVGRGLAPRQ
Shared flanks, not repeated: GGGAGUUCUACAGUCCGACGAUC … UGGAAUUCUCGGGUGUCAAGG
AGUCCUGUGCUACACAUCGUAUGUACCGAAUCGGAAAAAAAGGAAAAAAAGGAAAGGAAAGUAUUAUGUUACGCCGUUCGGAUCUGCACU: -1.5
UAACUUUAGAGGAGGAUCUGAUGGAUAUGGCAGUGGACGUGGAUUUGGGGAUGGCUAUAAUGGGUAUGGAGGAGGACCAGGAGGUGGCAA: 0.118
UCAAGUCCUGUGCUACACAUCGUAUGUACCGAAUCGGGGCCGGGGCCGGCCGGGGAAAGUAUUAUGUUACGCCGUUCGGAUCUGCACUUC: 0.39
CAAUGGGAAUGGACCAAAGAGUUUCAGGGAAACUCCAGUAUAUUCCAGAGUCAGAUCUAAGCUCCAGGCACGCCUGAAGAUGUGUUGCUA: -0.743
CACAGACAACACGCACCCACACAGACACAGAGGGAAGGGGUUGGGAUGGGGACAGGGUGCACAGCAGGGCGGGUUAGGACCCCAGCCCCU: 0.805
UCCUGUGCUACACAUCGUAUGUACCGAAUCAAACCCAAAUUUUUUUAAAUUUUUUUAAAAAAGUAUUAUGUUACGCCGUUCGGAUCUGCA: -1.22
CUCAAGUCCUGUGCUACACAUCGUAUGUACCGAAUCGGGGUGGGGUGGGUGGGGAAAGUAUUAUGUUACGCCGUUCGGAUCUGCACUUCC: -0.0145
UUAGGGAUGUGGCCAUAGAAUUCUCUCAGGAGGAGUGGAAAUGCCUGGACCCUGCUCAGAGGAUCUUAUACAGGGACGUGAUGUUGGAGA: 0.178
ACCAUGCAGGUGGGCAUCUUUGGGAAGUGGGGCAAGGGGGGGAUAGGGAGGGGUGUAACACUUUGGGAACAGGUGGUCCCAGGUCGUUUC: 0.408
GUCCUGUGCUACACAUCGUAUGUACCGAAUCGGGUUUUUGGGAAAAAGGGAAAAAGGGAAAGUAUUAUGUUACGCCGUUCGGAUCUGCAC: -0.912
UCCUGUGCUACACAUCGUAUGUACCGAAUCGGGGAAAAAGGGGUUUUUGGGGUUUGGGGAAAGUAUUAUGUUACGCCGUUCGGAUCUGCA: -0.881

Set 3 — target: CCNA2, cyclin fold, Cln2 fusion (human); technique: yeast growth competition, sequencing; matrix: yeast; setting: strong parent motif; relative to: not given; reading: higher = stronger binding; quantity: normalised enrichment score
Starting sequence: BRCA2 docking peptide (human); PSIKRNLLNEFDR; partner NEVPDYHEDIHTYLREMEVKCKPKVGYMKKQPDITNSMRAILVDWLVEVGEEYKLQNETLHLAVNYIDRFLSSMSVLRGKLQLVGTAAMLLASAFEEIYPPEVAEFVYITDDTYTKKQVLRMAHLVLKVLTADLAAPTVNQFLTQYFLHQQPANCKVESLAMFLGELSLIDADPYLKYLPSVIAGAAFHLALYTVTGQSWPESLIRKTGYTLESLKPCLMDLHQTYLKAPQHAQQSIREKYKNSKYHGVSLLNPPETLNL
MSIKRNLLNEFDR [P1M]: 4.53
KSIKRNLLNEFDR [P1K]: 6.5
FSIKRNLLNEFDR [P1F]: 5.14
PSIKRNLLNHFDR [E10H]: 2.15
PSIVRNLLNEFDR [K4V]: 4.66
PSIKRNLLNEDDR [F11D]: 0.317
PYIKRNLLNEFDR [S2Y]: 4.75
PSIERNLLNEFDR [K4E]: 0.572
PSIKRNLLNEFER [D12E]: 5.23
VSIKRNLLNEFDR [P1V]: 5.5
PSIHRNLLNEFDR [K4H]: 3.36
PSIKRNLLIEFDR [N9I]: 5.52
PHIKRNLLNEFDR [S2H]: 4.27
PSQKRNLLNEFDR [I3Q]: -0.658
PSIKRNLFNEFDR [L8F]: 4.11
PSIKRNLLNEGDR [F11G]: 2.14
PSIKRDLLNEFDR [N6D]: 2.51
PSISRNLLNEFDR [K4S]: 3.96

Set 4 — technique: protein binding microarray; form: double-stranded DNA, one strand shown; matrix: in vitro; tested at: not given; relative to: not given; reading: higher = stronger binding; quantity: E-score
Target: Histone acetyltransferase KAT6A, winged helix 2, GST fusion (KAT6A, Homo sapiens, UniProt Q92794, residues 85-181)
Setting: 8-mer, flanks averaged, mean of 2 arrays, mostly near background
Target sequence (chain): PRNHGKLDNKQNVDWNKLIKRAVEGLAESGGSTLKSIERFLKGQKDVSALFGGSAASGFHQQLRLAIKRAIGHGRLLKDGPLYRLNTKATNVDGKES
CCCCAAGG: -0.0939
TGAATTAA: 0.126
TCTGAGAA: -0.0131
CTAACGAC: -0.172
ATAGACCA: -0.168
CCGACATC: 0.00609
CAATAACA: -0.213
CACAAGGC: -0.0379
CCGCAACG: 0.145
GGCGGACA: 0.196
GATAGAAC: 0.007
CGACTCAA: -0.104
GAGGAAAA: 0.0827
ACATACAC: -0.139
AACACGGG: -0.038
GCAACTCC: 0.0568
CCTTACCC: -0.151

Set 5 — technique: RNA Bind-n-Seq; form: RNA; matrix: in vitro; tested at: 365 nM; relative to: no-protein control; reading: higher = stronger binding; quantity: RBNS enrichment (R)
Target: RNA binding protein fox-1 homolog 2, RRM domain, GST-SBP tag (RBFOX2, Homo sapiens, UniProt O43251-10, residues 100-194)
Setting: natural RNA segment, single round, ends assumed
Shared flanks, not repeated: GGGAGUUCUACAGUCCGACGAUC … UGGAAUUCUCGGGUGCCAA
Residues (chain): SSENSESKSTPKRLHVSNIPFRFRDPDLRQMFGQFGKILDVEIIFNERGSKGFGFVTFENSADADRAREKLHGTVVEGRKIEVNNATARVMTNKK
AAUACUAGUCCAAAUUUAAUAUUUGACAGAAUUCGUAUUGCUUGCUAUAACAAGGAUAGUUUAUAGUCUUUCCAGUUAUUUAAUGAAUAAAUGACGUUUAUUAAAAACAU: 0.644
CAAAUAAAUAACCUAUGGCCAAACUUGCACUGUUACGUGUUAACCAAGACAUCCCUUUAGGUGACAAGACUCUAUAACAGUGGUUACCUGUCUCCAUGUUGACACUUCAU: 0.44
GAAGUAUAUUUGAGCCAGAGGAAUGUGGCUUCCAAUCAAGUUUGUAGGAGUGGACCCUGCCACUGGCCCCAUCGGAGCCGGAAAGCCAAGGAGGAAGGGACAGAGCUAGA: 0.898
AAUUAACCAAGGUAGAAUGACCUUGUAAUGUAACUGCUCUUGGGCAAUAUUCUCUGUACAUAUUAGCGACAACAGAUUGGAUUUUAUGUUGACAUUUGUUUGGUUAUAGU: 0.829
ACCUGUGUGAUUCAGUAGGGUUUGAGACUUACGUGUGAUACUGACAGGUAAGCAACAGUGCUAGCAUUCUAGAUUCCUGCCUUUUUUUAAAAAGAAAUUAUUCUCAUUGC: 0.377
CACUCUCUCCACCUUUAUUUGCUUCUGAGUUCUUGUUUUUGAGCAAUAAACAGAAAGUCACCACUUGUAACUGAGCUGGUGAGUCUGGAAAAAUGGGUCUCAAAGUGUUG: 0.35
GAAACCAGUUGUUCCCAAUCUGCCGUUACCAUCAACGCACUGUUGCAUAUGCCAGCCACUGCGCUUGGUUCCCAUUUUCUUUGCCAAGGUGUAUUAGCGGACGGCCCUCU: 0.634
CCUCCCCGCGGCAGCGAUGGCCCGAGCCAUGAGAGUGAGGACUUUCCGCGCCCAUUGGUGACCCUUCCAGGCAGACAGCCUCAGCAGCGCCCCUGGUGGACAGGAUGGUU: 0.19
ACUCCCCUUAUGGUCUACCAGUAAUUCAUACUUGAGGACCAUGACUGUGGGGAAUGAGGCAUCUUUUAGCAAGAGCUCUCACCAAUUGUAGAUUGGUGUGAAUUGCUAAG: 0.226
CUCAAGGUGCCUCCUCCUCUCCUUAGCUGGCCCGUUGGUUUUCUGAGCAGGGGGCUGAACUGUGAACAAGUCAGACAAAUAAAGCAAGGGUCUGCACCAUCUGCAAUGUC: 0.313
GUGUGUGAUUUAGUGACUGAGCCUGCCCUUCUGUUUGUCAGUUACGUUUCUACCCUUCAAUUAGCUGCACUGUUUUCUAAUGUGCUGUAGAGUUUGGAAAUAAUUUAUGC: 1.53
AGGGGGACAGCAUAAGGUCUAUGUAAAACCCUUCCCUCUCUGACCCUCUGUUUUCAAAUCUGUAAAAUGGGCAAUAAGACUAGAUGAUUUGUAUAUAGCCCAAUGCAUCU: 2.15

Some of these lines once more (set 1):
G71W: 4.79%
W41I: 14.2%
Q31G: 12.4%
G107V: 10.5%
